Measured values from different studies.
Compare with care: the assays were run in different laboratories. ± gives the spread as reported.
Mode: agonist
GLP1R: Glucagon-like peptide 1 receptor (GLP1R, Homo sapiens, UniProt P43220)
Chain of UniProt P41180 (whole entry, looked up): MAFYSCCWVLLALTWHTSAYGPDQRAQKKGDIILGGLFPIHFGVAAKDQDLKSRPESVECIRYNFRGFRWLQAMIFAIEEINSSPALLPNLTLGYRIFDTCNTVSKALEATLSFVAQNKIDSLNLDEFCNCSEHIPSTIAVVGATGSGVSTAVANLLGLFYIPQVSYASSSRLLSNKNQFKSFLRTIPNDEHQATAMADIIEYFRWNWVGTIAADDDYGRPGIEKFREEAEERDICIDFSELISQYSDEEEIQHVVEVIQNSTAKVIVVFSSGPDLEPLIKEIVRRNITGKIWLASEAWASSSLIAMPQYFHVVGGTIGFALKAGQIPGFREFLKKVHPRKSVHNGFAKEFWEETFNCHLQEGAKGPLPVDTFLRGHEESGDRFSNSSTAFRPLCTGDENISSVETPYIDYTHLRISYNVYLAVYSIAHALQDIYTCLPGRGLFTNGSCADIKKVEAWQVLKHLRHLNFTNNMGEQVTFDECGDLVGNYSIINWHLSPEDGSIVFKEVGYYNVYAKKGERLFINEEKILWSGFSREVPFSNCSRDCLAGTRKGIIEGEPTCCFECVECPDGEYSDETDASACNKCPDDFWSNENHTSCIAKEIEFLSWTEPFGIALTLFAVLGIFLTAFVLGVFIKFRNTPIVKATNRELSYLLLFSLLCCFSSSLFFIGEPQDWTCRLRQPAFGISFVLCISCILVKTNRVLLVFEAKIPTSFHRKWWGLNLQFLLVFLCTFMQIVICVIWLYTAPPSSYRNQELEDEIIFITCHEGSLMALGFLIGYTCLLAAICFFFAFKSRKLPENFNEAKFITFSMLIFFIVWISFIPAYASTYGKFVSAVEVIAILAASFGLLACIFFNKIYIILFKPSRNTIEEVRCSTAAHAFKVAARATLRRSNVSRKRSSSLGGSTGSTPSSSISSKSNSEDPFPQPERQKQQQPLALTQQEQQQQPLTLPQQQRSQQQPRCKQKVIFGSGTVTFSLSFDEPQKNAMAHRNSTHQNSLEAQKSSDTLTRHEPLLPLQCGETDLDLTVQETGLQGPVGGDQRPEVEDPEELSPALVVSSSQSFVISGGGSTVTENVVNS
Chain of UniProt P08908 (whole entry, looked up): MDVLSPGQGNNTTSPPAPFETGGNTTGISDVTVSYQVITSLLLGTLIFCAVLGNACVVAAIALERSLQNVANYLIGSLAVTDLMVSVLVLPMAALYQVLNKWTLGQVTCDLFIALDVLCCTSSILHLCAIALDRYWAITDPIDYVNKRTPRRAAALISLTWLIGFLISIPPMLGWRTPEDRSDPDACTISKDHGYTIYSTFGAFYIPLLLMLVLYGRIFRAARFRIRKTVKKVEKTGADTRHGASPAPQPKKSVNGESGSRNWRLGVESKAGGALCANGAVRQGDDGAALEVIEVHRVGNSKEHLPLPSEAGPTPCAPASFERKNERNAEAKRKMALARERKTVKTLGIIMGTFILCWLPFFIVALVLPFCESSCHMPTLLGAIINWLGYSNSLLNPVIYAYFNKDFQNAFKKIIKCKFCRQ
Chain of UniProt Q9HB89 (whole entry, looked up): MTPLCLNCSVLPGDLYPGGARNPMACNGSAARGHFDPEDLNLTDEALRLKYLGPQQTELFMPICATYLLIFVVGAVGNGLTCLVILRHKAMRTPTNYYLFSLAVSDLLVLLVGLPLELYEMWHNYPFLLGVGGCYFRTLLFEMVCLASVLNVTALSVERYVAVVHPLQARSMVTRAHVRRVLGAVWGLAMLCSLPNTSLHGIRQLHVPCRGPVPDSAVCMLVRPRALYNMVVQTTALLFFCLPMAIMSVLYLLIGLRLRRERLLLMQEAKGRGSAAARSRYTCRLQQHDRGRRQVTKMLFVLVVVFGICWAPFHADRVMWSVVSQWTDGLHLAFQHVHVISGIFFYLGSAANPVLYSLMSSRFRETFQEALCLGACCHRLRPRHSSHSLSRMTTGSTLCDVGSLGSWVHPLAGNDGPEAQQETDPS
Chain of UniProt Q704Y3 (whole entry, unmodified, looked up): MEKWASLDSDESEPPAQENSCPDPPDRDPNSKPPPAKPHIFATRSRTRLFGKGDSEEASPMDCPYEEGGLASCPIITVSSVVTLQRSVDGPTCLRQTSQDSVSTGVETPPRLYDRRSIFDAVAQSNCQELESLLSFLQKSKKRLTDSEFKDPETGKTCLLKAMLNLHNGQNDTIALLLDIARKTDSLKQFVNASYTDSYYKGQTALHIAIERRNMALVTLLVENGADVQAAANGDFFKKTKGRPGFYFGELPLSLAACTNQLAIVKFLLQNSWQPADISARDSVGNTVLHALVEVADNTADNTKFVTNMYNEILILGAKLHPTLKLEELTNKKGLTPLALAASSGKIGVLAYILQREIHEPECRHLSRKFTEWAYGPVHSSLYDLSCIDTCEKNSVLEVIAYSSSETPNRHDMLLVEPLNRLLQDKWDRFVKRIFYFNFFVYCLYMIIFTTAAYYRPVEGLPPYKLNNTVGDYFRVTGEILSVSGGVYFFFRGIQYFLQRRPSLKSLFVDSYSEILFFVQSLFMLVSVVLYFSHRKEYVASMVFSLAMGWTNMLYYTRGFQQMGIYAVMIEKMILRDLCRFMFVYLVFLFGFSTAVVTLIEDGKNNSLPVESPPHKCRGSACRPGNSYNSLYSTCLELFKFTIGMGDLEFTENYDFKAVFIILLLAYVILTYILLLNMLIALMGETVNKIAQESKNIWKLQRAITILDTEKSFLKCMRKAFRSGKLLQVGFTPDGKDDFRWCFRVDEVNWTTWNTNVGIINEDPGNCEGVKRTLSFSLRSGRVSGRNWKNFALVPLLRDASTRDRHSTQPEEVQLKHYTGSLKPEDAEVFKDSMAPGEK
Chain of UniProt P08172 (whole entry, looked up): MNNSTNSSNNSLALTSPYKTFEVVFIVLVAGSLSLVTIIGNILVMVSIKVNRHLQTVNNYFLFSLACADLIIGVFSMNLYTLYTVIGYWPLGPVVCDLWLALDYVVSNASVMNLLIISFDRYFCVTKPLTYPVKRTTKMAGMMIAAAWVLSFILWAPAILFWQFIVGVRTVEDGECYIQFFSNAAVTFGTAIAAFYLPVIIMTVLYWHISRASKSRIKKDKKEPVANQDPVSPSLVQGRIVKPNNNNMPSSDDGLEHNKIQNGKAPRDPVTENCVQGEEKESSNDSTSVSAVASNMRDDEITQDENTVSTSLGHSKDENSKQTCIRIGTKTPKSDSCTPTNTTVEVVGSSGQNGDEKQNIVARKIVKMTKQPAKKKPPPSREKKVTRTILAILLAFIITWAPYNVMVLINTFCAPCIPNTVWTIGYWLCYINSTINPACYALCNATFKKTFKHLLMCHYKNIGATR

c1cc(N2CCNCC2)c2cc[nH]c2c1 — EC50 (Muscarinic acetylcholine receptor M2 (CHRM2, Homo sapiens, UniProt P08172); ERK1/2 phosphorylation; CHO cells): > 20000 nM
Clc1cc2c(cc1Cl)Oc1cc(Cl)c(Cl)cc1O2 — EC50 (Uncharacterized protein (Takifugu rubripes, UniProt Q4JHL5); reporter gene, dual-luciferase; COS-7; 24 h): 0.32 ± 0.2 nM
CC[C@H](C)[C@H](NC(=O)[C@H](Cc1ccccc1)NC(=O)[C@H](CCC(=O)O)NC(=O)[C@H](CCCNC(=N)N)NC(=O)[C@H](C)NC(=O)[C@H](C)NC(=O)[C@H](CCC(N)=O)NC(=O)[C@H](CCC(=O)O)NC(=O)[C@H](CCC(=O)O)NC(=O)[C@H](CC(C)C)NC(=O)[C@H](Cc1ccc(O)cc1)NC(=O)[C@H](CO)NC(=O)[C@H](CO)NC(=O)[C@@H](NC(=O)[C@H](CC(=O)O)NC(=O)[C@H](CO)NC(=O)[C@@H](NC(=O)[C@H](Cc1ccccc1)NC(=O)[C@@H](NC(=O)CNC(=O)[C@H](CCC(=O)O)NC(=O)[C@H](C)NC(=O)CCc1cnc[nH]1)[C@@H](C)O)[C@@H](C)O)C(C)C)C(=O)N[C@@H](C)C(=O)N[C@@H](Cc1c[nH]c2ccccc12)C(=O)N[C@@H](CC(C)C)C(=O)N[C@H](C(=O)N[C@@H](CCCCNC(=O)COCCOCCNC(=O)COCCOCCNC(=O)CC[C@H](NC(=O)CCCCCCCCCCCCCCCCC(=O)O)C(=O)O)C(=O)NCC(=O)N[C@@H](CCCNC(=N)N)C(=O)N[C@@H](CCCCNc1c(NCCCCCN(O)C(=O)CCC(=O)NCCCCCN(O)C(=O)CCC(=O)NCCCCCN(O)C(C)=O)c(=O)c1=O)C(=O)NCC(=O)NCC(=O)N[C@@H](CO)C(=O)N[C@@H](CCCCNc1c(NCCCCCN(O)C(=O)CCC(=O)NCCCCCN(O)C(=O)CCC(=O)NCCCCCN(O)C(C)=O)c(=O)c1=O)C(=O)NCC(=O)NCC(=O)N[C@@H](CO)C(=O)N[C@@H](CCCCNc1c(NCCCCCN(O)C(=O)CCC(=O)NCCCCCN(O)C(=O)CCC(=O)NCCCCCN(O)C(C)=O)c(=O)c1=O)C(=O)O)C(C)C — EC50 (GLP1R; cAMP reporter gene, CRE luciferase; BHK; with Zr, 1% HSA): 0.28 nM
CCCCC/C=C\C/C=C\C/C=C\C/C=C\CCCC(=O)NCCO — EC50 (Transient receptor potential cation channel subfamily V member 1 (Trpv1, Mus musculus, UniProt Q704Y3, T551S); ion current, whole-cell patch clamp; 24 °C, T551S, +80 mV): 6510 ± 640 nM
CC(C)C[C@H](NC(=O)[C@H](Cc1ccccc1)NC(=O)[C@H](Cc1ccc(O)cc1)NC(=O)CNC(=O)[C@H](CCCCN)NC(=O)[C@H](CO)NC(=O)[C@H](CCC(N)=O)NC(=O)CNC(=O)[C@@H](NC(=O)[C@H](CO)NC(=O)[C@@H]1CCCN1C(=O)[C@H](CO)NC(=O)[C@H](CCC(N)=O)NC(=O)[C@H](Cc1ccc(O)cc1)NC(=O)[C@H](CCC(=O)O)NC(=O)[C@H](C)NC(=O)[C@H](CCCCN)NC(=O)[C@@H](N)Cc1ccccc1)C(C)C)C(=O)N[C@@H](Cc1ccccc1)C(=O)N[C@@H](CCCNC(=N)N)C(=O)N1CCC[C@H]1C(=O)N[C@@H](CCCNC(=N)N)C(=O)N[C@@H](CC(N)=O)C(N)=O — EC50 (Neuromedin-U receptor 1 (NMUR1, Homo sapiens, UniProt Q9HB89); beta-arrestin recruitment, PathHunter luminescence; CHO-K1; 90 min, 37 °C): 0.69 nM
CC[C@H](C)[C@H](NC(=O)[C@H](Cc1ccccc1)NC(=O)[C@H](CCC(=O)O)NC(=O)[C@H](CCCNC(=N)N)NC(=O)[C@H](C)NC(=O)[C@H](C)NC(=O)[C@H](CCC(N)=O)NC(=O)[C@H](CCC(=O)O)NC(=O)[C@H](CCC(=O)O)NC(=O)[C@H](CC(C)C)NC(=O)[C@H](Cc1ccc(O)cc1)NC(=O)[C@H](CO)NC(=O)[C@H](CO)NC(=O)[C@@H](NC(=O)[C@H](CC(=O)O)NC(=O)[C@H](CO)NC(=O)[C@@H](NC(=O)[C@H](Cc1ccccc1)NC(=O)[C@@H](NC(=O)CNC(=O)[C@H](CCC(=O)O)NC(=O)[C@H](C)NC(=O)CCc1cnc[nH]1)[C@@H](C)O)[C@@H](C)O)C(C)C)C(=O)N[C@@H](C)C(=O)N[C@@H](Cc1c[nH]c2ccccc12)C(=O)N[C@@H](CC(C)C)C(=O)N[C@H](C(=O)N[C@@H](CCCNC(=N)N)C(=O)NCC(=O)N[C@@H](CCCNC(=N)N)C(=O)N[C@@H](CCCCNC(=O)COCCOCCNC(=O)COCCOCCNC(=O)CC[C@H](NC(=O)CCCCCCCCCCCCCCCCC(=O)O)C(=O)O)C(=O)NCC(=O)NCC(=O)N[C@@H](CO)C(=O)N[C@@H](CCCCNc1c(NCCCCCN(O)C(=O)CCC(=O)NCCCCCN(O)C(=O)CCC(=O)NCCCCCN(O)C(C)=O)c(=O)c1=O)C(=O)NCC(=O)NCC(=O)N[C@@H](CO)C(=O)N[C@@H](CCCCNc1c(NCCCCCN(O)C(=O)CCC(=O)NCCCCCN(O)C(=O)CCC(=O)NCCCCCN(O)C(C)=O)c(=O)c1=O)C(=O)O)C(C)C — EC50 (GLP1R; cAMP reporter gene, CRE luciferase; BHK; with Zr, 1% HSA): 0.1 nM
CC[C@H](C)[C@H](NC(=O)[C@H](Cc1ccccc1)NC(=O)[C@H](CC(=O)O)NC(=O)[C@H](CCCNC(=N)N)NC(=O)[C@@H](NC(=O)[C@H](C)NC(=O)[C@H](CC(C)C)NC(=O)[C@H](CC(N)=O)NC(=O)[C@H](CC(=O)O)NC(=O)[C@H](CC(C)C)NC(=O)[C@@H](NC(=O)[C@@H](NC(=O)[C@H](CO)NC(=O)[C@H](CCSC)NC(=O)[C@H](CCC(=O)O)NC(=O)[C@H](CC(=O)O)NC(=O)[C@H](CO)NC(=O)[C@H](Cc1ccccc1)NC(=O)[C@H](CO)NC(=O)CNC(=O)[C@H](CC(=O)O)NC(=O)[C@H](C)NC(=O)[C@@H](N)Cc1c[nH]cn1)[C@@H](C)O)[C@@H](C)CC)[C@@H](C)O)C(=O)N[C@@H](CC(N)=O)C(=O)N[C@@H](Cc1c[nH]c2ccccc12)C(=O)N[C@@H](CC(C)C)C(=O)N[C@H](C(=O)N[C@@H](CCC(N)=O)C(=O)N[C@H](C(=O)N[C@@H](CCCCN)C(=O)N[C@H](C(=O)N[C@H](C(=O)N[C@@H](CC(=O)O)C(=O)O)[C@@H](C)O)[C@@H](C)CC)[C@@H](C)O)[C@@H](C)CC — EC50 (GLP1R; reporter gene, CRE-luciferase; HEK-293T; 12 h): 25.4 nM
C[C@H](N)Cn1ncc2ccc3c(c21)CCCO3 — EC50 (5-hydroxytryptamine receptor 1A (HTR1A, Homo sapiens, UniProt P08908); item: cAMP; CHO; with: forskolin): 15000 nM
COC(=O)C1=C(C)NC(C)=C(C(=O)OC)C1c1ccccc1[N+](=O)[O-] — EC50 (Extracellular calcium-sensing receptor (CASR, Homo sapiens, UniProt P41180)): 210 nM

Excerpt of the above:
c1cc(N2CCNCC2)c2cc[nH]c2c1 — EC50 (Muscarinic acetylcholine receptor M2 (CHRM2, Homo sapiens, UniProt P08172); ERK1/2 phosphorylation; CHO cells): > 20000 nM
CC(C)C[C@H](NC(=O)[C@H](Cc1ccccc1)NC(=O)[C@H](Cc1ccc(O)cc1)NC(=O)CNC(=O)[C@H](CCCCN)NC(=O)[C@H](CO)NC(=O)[C@H](CCC(N)=O)NC(=O)CNC(=O)[C@@H](NC(=O)[C@H](CO)NC(=O)[C@@H]1CCCN1C(=O)[C@H](CO)NC(=O)[C@H](CCC(N)=O)NC(=O)[C@H](Cc1ccc(O)cc1)NC(=O)[C@H](CCC(=O)O)NC(=O)[C@H](C)NC(=O)[C@H](CCCCN)NC(=O)[C@@H](N)Cc1ccccc1)C(C)C)C(=O)N[C@@H](Cc1ccccc1)C(=O)N[C@@H](CCCNC(=N)N)C(=O)N1CCC[C@H]1C(=O)N[C@@H](CCCNC(=N)N)C(=O)N[C@@H](CC(N)=O)C(N)=O — EC50 (Neuromedin-U receptor 1 (NMUR1, Homo sapiens, UniProt Q9HB89); beta-arrestin recruitment, PathHunter luminescence; CHO-K1; 90 min, 37 °C): 0.69 nM
